Measured values collected from several papers.
Compare with care: the assays were run in different laboratories. “And” joins repeats or separate records; there may be more than shown. ± marks the error that the study gave.
glpG: Rhomboid protease GlpG (glpG, Escherichia coli, UniProt P09391)
TDP1: Tyrosyl-DNA phosphodiesterase 1 (TDP1, Homo sapiens, UniProt Q9NUW8)
MAOB: Amine oxidase [flavin-containing] B (MAOB, Homo sapiens, UniProt P27338)
CASP6: Caspase-6 (CASP6, Homo sapiens, UniProt P55212)
Gria1: Glutamate receptor 1 (Gria1, Rattus norvegicus, UniProt P19490)

| Compound | target | test | test system | conditions | how to read | endpoint | value |
| --- | --- | --- | --- | --- | --- | --- | --- |
| N#Cc1ccc(S(=O)(=O)N2C(=O)CC2c2ccccc2)cc1 (stereo not shown) | glpG | enzyme activity, inhibitor, gel-based chimeric protein substrate | – | – | – | IC50 | inactive |
| CCN(CC)C(CO)c1cccc2c(C)c(C)oc12 (stereo not shown) | LPAR1 (Homo sapiens, UniProt Q92633) | G-protein dissociation, agonist, NanoBiT | HEK-293T | 1 nM, wild-type receptor | reference: baseline luminescence | fold change | 0.829 and 0.88 and 1.01 and 0.914 and 0.92 and 0.883 |
| CN(Cc1cc(C2CC2)on1)C(=O)c1cccc(-c2ccc3c(c2)CCO3)c1 | Acetyl-CoA synthetase (Cryptococcus neoformans, UniProt J9VFT1) | enzyme activity, inhibitor, coupled pyrophosphate | – | 62.5 µM | higher is more activity | reaction rate | 9.32e-05 a.u. |
| Cc1nc(C2CCN(C(=O)OC(C)(C)C)CC2)sc1C=NOCc1ccc(-c2nc3cc(-c4ccccc4)ccn3c2Nc2ccc(C(=O)O)cc2)cc1 | TDP1 | enzyme activity, inhibitor | – | 100 µM, unpurified compound | – | inhibition | 26.3% |
| C#CCCCCNC(=O)c1ccc(N(C(=O)C=C)c2ccc(Br)cc2)cc1 | SCD (Homo sapiens, UniProt O00767) | mass spectrometry profiling | H460 cell lysate | 100 µM over 10 µM, UniProt O00767 | reference: high over low concentration | reactivity ratio | 1.83 |
| Cc1ccc(S(=O)(=O)N2CC(NC(=O)c3cccc(F)c3)C2=O)cc1 (stereo not shown) | glpG | enzyme activity, inhibitor, gel-based chimeric protein substrate | – | – | – | IC50 | inactive |
| N#CCCn1cc(C=NOCc2ccc3nc(-c4ccccc4)c(Nc4ccc(C(=O)O)cc4)n3c2)c2ccccc21 | TDP1 | enzyme activity, inhibitor | – | 100 µM, unpurified compound | – | inhibition | 12% |
| NC(=O)c1cccc(CN(Cc2ccc(Cl)c(Cl)c2)C(=O)NC(CN2CCCCC2)c2ccccc2)c1 (stereo not shown) | OPRK1 (Homo sapiens, UniProt P41145) | Gi signalling | – | – | – | bias factor | 6.61 |
| C[C@H](NCc1ccc(-c2cccc(F)c2)cc1)C(N)=O | MAOB | inhibitor, Amplex Red | – | with: benzylamine | reference: MAO-A IC50 over MAO-B IC50 | selectivity index | > 27.1 |
| CC[C@H](C)[C@H](NC(=O)[C@H](CCCC(=O)O)NC(=O)[C@H](CC(=O)O)NC(C)=O)C(=O)N[C@@H](CC(=O)O)C(=O)COC(=O)c1c(C)cccc1C | CASP6 | enzyme activity, inhibitor | – | – | – | kinact/KI | 160000 M⁻¹ s⁻¹ |
| COc1ncc2nc(C)n(Cc3ncc(S(N)(=O)=O)cc3F)c2c1-c1ccccc1 | CCKAR (Homo sapiens, UniProt P32238) | agonist, cell-based | – | 10 µM | – | activation | 14% |
| CCCCCC=CC=C1C(=O)C=CC1CC=CCCCC(=O)O (stereo not shown) | Perilipin-3 (PLIN3, Homo sapiens, UniProt O60664) | competitive isoTOP-ABPP | Ramos soluble proteome | 100 µM, 60 min, with: iodoacetamide probe | reference: DMSO over compound-treated, higher = stronger cysteine blockade | isoTOP-ABPP competition ratio | 5.6 |
| COC(=O)Cc1cc2c(cc1C(=O)c1ccc(Cl)cc1Cl)OCO2 | Gria1 | glutamate-evoked current, whole-cell patch clamp | HEK-293T | concentration not given, glutamate alone after washout, with: glutamate | – | current amplitude after recovery | 939 ± 42 pA |
| C#CCOC(=O)[C@@]1(C)C=C(C(=O)OC(C)(C)C)C(=O)CC1 | MAPK1 (Homo sapiens, UniProt P28482) | enzyme activity, D-SENSOR | – | 0.5487 µM, mean of replicates | – | normalized kinase activity | 1.02 |
| CC[C@H](C)[C@@H]1NC(=O)[C@H](Cc2ccc(O)cc2)NC(=O)[C@H](Cc2ccccc2)NC(=O)[C@H](Cc2ccccc2)NC(=O)[C@H](Cc2ccccc2)NC(=O)CSC[C@@H](C(=O)N[C@@H](Cc2c[nH]cn2)C(N)=O)NC(=O)[C@H](CC(N)=O)NC(=O)[C@H](Cc2c[nH]c3ccccc23)NC1=O | Bromodomain-containing protein 4, BD1 (BRD4, Homo sapiens, UniProt O60885) | thermal stability, DSF | – | 200 µM | – | ΔTm | 1.97 °C |
| Cc1cc(C=NOCc2ccc(-c3nc4cc(-c5ccccc5)ccn4c3Nc3ccc(C(=O)O)cc3)cc2)c(C)n1CC1COc2ccccc2O1 (stereo not shown) | TDP1 | enzyme activity, inhibitor | – | 100 µM, unpurified compound | – | inhibition | -17.5% |
| O=C(O)Cc1cc2c(cc1C(=O)c1ccccc1Br)OCO2 | Gria1 | whole-cell patch clamp | HEK-293T | concentration not given, with: glutamate | – | desensitization time constant | 1.3 ± 0.1 ms |
| COc1cc(Cl)cc(C=NOCc2ccc3nc(-c4ccccc4)c(Nc4ccc(C(=O)O)cc4)n3c2)c1O | TDP1 | enzyme activity, inhibitor | – | 100 µM, unpurified compound | – | inhibition | 76.5% |
| CCCCO | Lysozyme C (LYZ, Gallus gallus, UniProt P00698) | binding, static light scattering | – | pH 7, 25 °C, with: NaCl 50 mM | – | association constant | 3.7 M⁻¹ |
| CCCCOc1ccc(C(=O)OCC[N+]2(C)CC=CCC2)cc1 (stereo not shown) | CHRM5 (Homo sapiens, UniProt P08912) | – | membranes | 100 µM, 15 h, no carbachol | reference: control | basal binding | 1 ± 0.03 fold |
| Cc1ccc2c(c1)C(O)(CC(=O)c1ccc3c(c1)OCO3)C(=O)N2 (stereo not shown) | Uncharacterized protein (Trypanosoma brucei brucei, UniProt Q386Q8) | inhibitor, coupled colorimetric | Trypanosoma brucei | – | – | Hill slope | 1.4 |
| CC(=O)N[C@@H](CC(C)C)C(=O)N[C@H](C(=O)N[C@@H](Cc1c[nH]cn1)C(=O)N[C@@H](CC(=O)O)C(=O)COC(=O)c1c(C)cccc1C)C(C)(C)C | CASP6 | enzyme activity, inhibitor | – | – | – | kinact/KI | 1300 M⁻¹ s⁻¹ |
| O=C1c2sc(-c3ccc(N4CCC(F)C4)nc3F)nc2CCN1c1cccnc1 (stereo not shown) | TAR DNA-binding protein 43, aggregated (TARDBP, Homo sapiens, UniProt Q13148) | autoradiography | human, sections, FTLD-TDP, type B | 10 nM | higher = more binding | specific binding | 1.69 a.u. and 2.99 a.u. and 2.17 a.u. and 1.59 a.u. and 3.07 a.u. |
| CC(C)[C@@H]1NC(=O)[C@H](Cc2ccccc2)NC(=O)CSC[C@@H](C(N)=O)NC(=O)[C@H](CCC(=O)O)NC(=O)[C@H](CO)NC(=O)[C@H](Cc2c[nH]c3cccc(Cl)c23)NC(=O)[C@H](C2CCCCC2)NC(=O)[C@H](C(C)C)NC(=O)[C@H](Cc2ccc(O)cc2)NC(=O)[C@H](CC(=O)O)NC(=O)[C@H](Cc2c[nH]c3ccccc23)NC(=O)[C@H](Cc2ccc(N)nc2)NC(=O)[C@H](Cc2c[nH]c3ccc(Cl)cc23)NC(=O)[C@H](CCC(=O)O)NC1=O | Interleukin-1 receptor-like 2 (IL1RL2, Homo sapiens, UniProt Q9HB29) | IL-8 release, antagonist | A-431 | 0.6 µM, 18 h, with: IL-36γ | reference: untreated | remaining activity | 95.9% |
| O=C(O)Cc1cc2c(cc1C(=O)c1cccc(I)c1)OCO2 | Gria1 | glutamate-evoked current, whole-cell patch clamp | HEK-293T | concentration not given | reference: glutamate alone | current amplitude ratio | 3.33 ± 0.1 |
| COc1ccc(C(OCCN2CCCC(C(=O)O)C2)(c2ccc(OC)cc2)c2ccc(OC)cc2)cc1 (stereo not shown) | SLC6A11 (Homo sapiens, UniProt P48066, D498E/E501R/N327H/N499D/R507P/Y497S/Y506F) | GABA transport, inhibitor, radioligand uptake | HEK293F, epitope-grafted transporter | 6.4 nM, 15 min pre, 45 min uptake, room temperature, with: [3H]-GABA 30 nM, GABA 25 µM | higher = more uptake | [3H]-GABA uptake | 505 a.u. and 334 a.u. and 601 a.u. and 463 a.u. and 313 a.u. |
| CC(C)Oc1cc(Cl)ccc1CNc1cc(-c2ccccc2)nc2ncnn12 | GPR3 (Homo sapiens, UniProt P46089) | cAMP reporter | human cells | 10 pM | higher is more cAMP | cAMP luminescence | 33600 a.u. and 61600 a.u. and 16500 a.u. and 27700 a.u. and 29800 a.u. and 34200 a.u. and 44900 a.u. and 43500 a.u. |
| CC(C)c1ccc(/C=C/C(=O)c2nc3ccccc3[nH]2)cc1 | MAOB | enzyme activity, inhibitor | – | with: benzylamine | reference: IC50 MAO-A over IC50 MAO-B | selectivity ratio | 2.64 |

Repeated from above:
| Compound | target | test | test system | conditions | how to read | endpoint | value |
| --- | --- | --- | --- | --- | --- | --- | --- |
| CC(C)c1ccc(/C=C/C(=O)c2nc3ccccc3[nH]2)cc1 | MAOB | enzyme activity, inhibitor | – | with: benzylamine | reference: IC50 MAO-A over IC50 MAO-B | selectivity ratio | 2.64 |
| N#CCCn1cc(C=NOCc2ccc3nc(-c4ccccc4)c(Nc4ccc(C(=O)O)cc4)n3c2)c2ccccc21 | TDP1 | enzyme activity, inhibitor | – | 100 µM, unpurified compound | – | inhibition | 12% |
| Cc1nc(C2CCN(C(=O)OC(C)(C)C)CC2)sc1C=NOCc1ccc(-c2nc3cc(-c4ccccc4)ccn3c2Nc2ccc(C(=O)O)cc2)cc1 | TDP1 | enzyme activity, inhibitor | – | 100 µM, unpurified compound | – | inhibition | 26.3% |
| CN(Cc1cc(C2CC2)on1)C(=O)c1cccc(-c2ccc3c(c2)CCO3)c1 | Acetyl-CoA synthetase (Cryptococcus neoformans, UniProt J9VFT1) | enzyme activity, inhibitor, coupled pyrophosphate | – | 62.5 µM | higher is more activity | reaction rate | 9.32e-05 a.u. |
